Experimental data from different studies.
Numbered parts are unrelated; each lists some results of a single study.

Block 1 — technique: RNA Bind-n-Seq; form: RNA; medium: in vitro; concentration: 365 nM; reference: no-protein control; direction: higher = stronger binding
Target: RNA binding protein fox-1 homolog 2, RRM domain, GST-SBP tag (RBFOX2, Homo sapiens, UniProt O43251-10, residues 100-194)
Setting: natural RNA segment, single round, ends assumed
Constant ends, left off below: GGGAGUUCUACAGUCCGACGAUC … UGGAAUUCUCGGGUGCCAA
Construct (chain): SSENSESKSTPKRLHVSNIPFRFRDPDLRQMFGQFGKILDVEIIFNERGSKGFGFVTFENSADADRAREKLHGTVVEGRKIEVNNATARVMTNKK
Strand	RBNS enrichment (R)
AUUCUGGUGUUUGUAACACCAAAGUGGAAAAUACAGCCCAUGGCAUGGGUGCUGUGAAGUUGAGAUGAGAAAAUGAUAUGACCUUGCUGUGGGUCUCUGGAUCCUGACCA	1.06
GAAUUUGCACAUGGUGUAGAGAGCUCCCUCUCCUGCCUCUCUGCCCAGCCUUGUUACCUCACUCCUGCUCCAGCCAUUGUGAUGGGCUCAGCCAGCUCCCUGUUCUGAUG	2.29
UAGAGAGCUGUUAUUUCUAAAGGGGAAACCAGCUUUCUGUUCCAAAUGGAAGUUAGGUGAGGAGUUGAAGGUUGGUUUCUUGCGCUGUGCUUCCUUGGCUUGGGGGAGGG	2.64
ACACAGAGAGUAACUGAAGCCUAUCUUAAGCAAAGAGAAACCACCCGUCCACUCUGGGGCUGCCCUACUGAAUGCCCCUUUCCAGGACCUUGGUAUUCCUUCUCAUUCAG	0.232
CCUCCCGUCCUCUAAGACUAGCUCAUAAGCAUCCUGAGUCAAAGACCUCUGCCUGCCUUGUGAGUACGACUUGUGGCACUUAGCAUGGUGUUCAACACACGAAAUGCUCA	1.33
AAAAAUAGAAAUUACACUCAGGAUCACUGUUACUGCUAUUGCCACUGAUGAUUCCUGCAAAAAUAUAAUCGAAGUUUUCCAUCAAAUGUAUAAUAUGCUAUUAAUACACA	0.811
CGGGAGGCUGAGGCAGGAGAAUCGCUUGAACCCAGGAGGCGGAGGUUGCAGUGAGCCAAGAUGGCGCCAUUGCACUCCAGCCUGGGCGACAAGAGCAAAACUCCGUCUCA	0.211
AGUAGCAGAGGGUCUCGUGCCCAAAAGGCUACCCUUCAAGAUAAGGGAGCCCCGAGGGUCUUUGCAGGAGUUGAUCUUGCUGUGUAGAGCACUAUUGUCCCGGGGUUGAC	0.28
UAAGGAUCUCUAUUUCAUCUCUUGAACGAUGAAAAUAGUGACGUAUAUAUAGUACUUCUAUAAAUAACAGUUUUUAAGAAAUAGGUAAGUGGGGCAGGUUUGGUGGCUUC	0.918
UAGAAGGGUCUGAUAUUAGGUUUAGUGCUCUGCUAGUGCAGUUGUUGAAUUCUUAAGAAUGUUUGAUGAAGGCAUAUUUUCACUUUGUACUGGCUCACCAAAAUUGCUGA	0.554
AAGGACAACUUCAGGAGGGUGCAGUGAGGGCAGCCGUGUGGAGUCUUGCUUUGCAUUUGAUAGUGUCAAAUAAUUGCUUGUACCCUAGGUAAUGACCAGUGGAUUUUUGU	0.99
UGUUGUCAUGGAGCUGUGGGAGUUGGCACUCUGUCUGCUGGUGGCCCUCUCGGCUCACAUGUUCACAGUGCAGCUCCUGGCAGACUUGGGUUUUCUCUUUGGUGGUUUCU	0.488

Block 2 — technique: universal PBM; form: double-stranded DNA, one strand shown; medium: in vitro; concentration: not given; direction: higher = stronger binding
Target: Sal-like protein 4, full length isoform B (SALL4, Homo sapiens, UniProt Q9UJQ4-2, residues 1-616)
Setting: 8-mer, flanks averaged, mean of replicates
Construct (chain): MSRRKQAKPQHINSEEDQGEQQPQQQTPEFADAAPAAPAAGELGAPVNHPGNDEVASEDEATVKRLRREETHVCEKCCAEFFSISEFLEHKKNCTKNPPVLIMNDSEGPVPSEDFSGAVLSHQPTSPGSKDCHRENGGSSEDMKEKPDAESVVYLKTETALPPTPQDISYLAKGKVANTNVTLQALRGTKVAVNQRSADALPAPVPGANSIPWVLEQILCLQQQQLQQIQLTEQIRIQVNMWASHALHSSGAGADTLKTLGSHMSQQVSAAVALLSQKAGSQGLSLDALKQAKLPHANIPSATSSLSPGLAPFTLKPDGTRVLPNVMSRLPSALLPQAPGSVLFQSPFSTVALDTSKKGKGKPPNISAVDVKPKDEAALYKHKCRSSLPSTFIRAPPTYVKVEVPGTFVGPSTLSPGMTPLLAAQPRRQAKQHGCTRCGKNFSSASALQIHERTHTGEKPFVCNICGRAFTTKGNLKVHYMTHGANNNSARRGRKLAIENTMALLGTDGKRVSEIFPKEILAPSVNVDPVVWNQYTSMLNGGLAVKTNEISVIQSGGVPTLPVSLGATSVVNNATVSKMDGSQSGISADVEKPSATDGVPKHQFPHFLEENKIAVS
Strand	E-score
ATCAACTG	-0.00798
CATGTATC	0.19
ATGAAACC	0.142
CCTCGAAA	0.0589
CTTCATCC	0.0028
CCAGTCTC	-0.28
CTAGCGGA	-0.354
AATGCACA	0.156
CGACGAAC	-0.123
CGTTTTAC	0.123
CGAAGTAC	-0.0121
CTACTGGC	-0.198
GTGAGCAC	-0.0934
AGTGTACA	0.141
AGTTTCAC	0.113
CCTCTTGA	0.0512
CACTTGAC	-0.0377
AGCCGCAG	-0.318
AGTAACAA	0.174

Block 3 — technique: RNA Bind-n-Seq; form: RNA; medium: in vitro; concentration: 20 nM; setting: 6-mer, flanks averaged, single round; together with: 150 mM LiCl; reference: input library; direction: higher = stronger binding
Target: TAR DNA-binding protein 43, full length, His tag (TARDBP, Homo sapiens, UniProt Q13148, residues 1-414)
Strand	6-mer enrichment (R)
CCUCGG	0.865
GUUCUU	1.02
AAGAAC	0.9
CGACAC	0.887
GGGCAA	1
CUACCU	0.886
ACCUUA	0.889
ACAAGU	0.864
UCGUCG	1.04
GUGGAG	1.36
UCCUUG	1.08
CUGAGA	0.873
CGACGC	0.826
UGUUGU	1.57
UGCACG	0.953
CGUCCC	1.01

Block 4 — technique: protein-binding microarray; form: double-stranded DNA, one strand shown; medium: in vitro; concentration: 2200 nM top; setting: 60-bp whole probe; together with: salmon DNA 0.4 mg/ml; reference: random background probes; direction: higher = stronger binding; constant ends, left off below: GCCTAGCAC … GTCTTGATTCGCTTGACGCTGCTG
Target: Interferon regulatory factor 7, full length, phosphomimetic (IRF7, Homo sapiens, UniProt Q92985, residues 1-503, S471D/S472D/S475D/S476D/S477D/S483D/S484D/S487D)
Construct (chain): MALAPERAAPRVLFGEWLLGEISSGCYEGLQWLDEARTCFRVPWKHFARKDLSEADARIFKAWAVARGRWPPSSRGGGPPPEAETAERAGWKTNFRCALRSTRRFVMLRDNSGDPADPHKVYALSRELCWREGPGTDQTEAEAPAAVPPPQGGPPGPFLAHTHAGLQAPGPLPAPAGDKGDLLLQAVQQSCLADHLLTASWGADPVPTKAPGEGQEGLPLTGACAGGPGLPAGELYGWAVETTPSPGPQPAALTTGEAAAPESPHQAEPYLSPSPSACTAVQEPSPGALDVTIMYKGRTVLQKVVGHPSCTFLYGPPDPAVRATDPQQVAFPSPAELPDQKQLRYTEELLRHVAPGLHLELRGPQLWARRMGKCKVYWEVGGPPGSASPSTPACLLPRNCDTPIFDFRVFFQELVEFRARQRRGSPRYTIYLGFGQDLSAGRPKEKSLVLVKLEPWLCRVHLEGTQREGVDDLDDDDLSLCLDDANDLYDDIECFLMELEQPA
Strand	fitted relative affinity [z-score]
TTAGATCTCAGCTTCGATTAGTGCTAG	0.261
GCTTCCTCCTACCCGACCCCGTGCTAG	1.92
GACGGTATCGGTTACGGGACGTGCTAG	0.237
TTATGTCTCCTACTGCTTTAGTGCTAG	1.63
TTAGATAGCGGGTTTCGATTAGTGCTA	2.1
CGACATCTGCAAGATCCACAAGTGCTA	0.543
TTAGGTATCCTATTGCTTTAGTGCTAG	0.616
TTAGATCTAAGTCTCGATTAGTGCTAG	0.0932
AACGGTTTCCTTATCCTGACGTGCTAG	2.94
TCAGCTCTAGGTTCTCTGAAGGTGCTA	-0.11
TCAGCTTTCCAATTCTCACTGTGCTAG	3.17
GACGATATCGGGACTGGACACGTGCTA	-0.128
GCCGATCTCAGTTTCGAGACGTGCTAG	3.83
GACGGTTTCGGTATCGGGGCGTGCTAG	8.39
GACGGTTTCGACTTGCGGGACGTGCTA	8.85
CTGAGGCTGCCGTGGCCATGGTGCTAG	-1.41
GACGAGCTGAGTATCGAGACGTGCTAG	-0.22
GATGGTTTCCTACTGCTGACGTGCTAG	1.68

Block 5 — technique: protein binding microarray; form: double-stranded DNA, one strand shown; medium: in vitro; concentration: not given; reference: not given; direction: higher = stronger binding
Target: Histone acetyltransferase KAT6A, both winged helices, GST fusion (KAT6A, Homo sapiens, UniProt Q92794, residues 1-181)
Setting: 8-mer, flanks averaged, mean of 2 arrays, mostly near background
Residues (chain): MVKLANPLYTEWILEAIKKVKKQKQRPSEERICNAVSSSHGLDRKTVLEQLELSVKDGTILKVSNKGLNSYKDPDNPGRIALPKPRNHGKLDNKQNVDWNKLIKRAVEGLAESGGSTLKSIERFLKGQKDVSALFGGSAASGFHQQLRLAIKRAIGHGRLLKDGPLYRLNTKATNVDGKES
Strand	E-score
AGACTGCC	0.103
ATAAATCC	-0.0363
AACCTTCC	-0.0138
AATGGTGT	-0.16
CAACGTTC	0.0834
ATCCTTAA	-0.0936
GCGCACGA	0.217
AGGAGCGG	0.222
CTCTGGCA	-0.155
GGCGCTAC	0.203
ATACAAAG	0.0113
CTAATCAA	-0.115
ATCACCTC	-0.0159
CATTTTAG	0.118
GCAAACAA	-0.0376
AAAACCAG	-0.0941
CGTCTGAA	-0.026
CTGCGGCA	0.238

Single results of other studies
Molecule	target	test	system	conditions	scale	measurement	result
PhoQ, residues 284 288 289 292 302 303 SVHLDV	PhoP, residues 12 14 15 18 19 NYFTV (Escherichia coli, UniProt P23836)	Sort-seq, measured: YFP reporter	E. coli	PhoQ-PhoP variant library, together with: 10 µM Mg2+	reference: high Mg2+ state, higher = stronger signaling	fold induction	4.85

Some of these lines once more (block 4):
Strand	fitted relative affinity [z-score]
TTAGATCTCAGCTTCGATTAGTGCTAG	0.261
GCTTCCTCCTACCCGACCCCGTGCTAG	1.92
GACGGTATCGGTTACGGGACGTGCTAG	0.237
TTATGTCTCCTACTGCTTTAGTGCTAG	1.63
TTAGATAGCGGGTTTCGATTAGTGCTA	2.1
CGACATCTGCAAGATCCACAAGTGCTA	0.543
TTAGGTATCCTATTGCTTTAGTGCTAG	0.616
TTAGATCTAAGTCTCGATTAGTGCTAG	0.0932
AACGGTTTCCTTATCCTGACGTGCTAG	2.94
TCAGCTCTAGGTTCTCTGAAGGTGCTA	-0.11
TCAGCTTTCCAATTCTCACTGTGCTAG	3.17
GACGATATCGGGACTGGACACGTGCTA	-0.128
